Measured values pooled from the literature.
Numbers after ± are the reported error.

For C=CC(C)(C)c1cc(C(=O)c2c(-c3cc(-c4cc5cc(C(C)(C)C=C)c(O)cc5oc4=O)c(O)cc3O)oc3cc(O)ccc23)c(O)cc1O, the IC50 was 9.2 µM (Hepa1c1c7; cell growth).
For C=CCc1ccc(O)c(-c2ccc(O)c(CC=C)c2)c1, the IC50 was 10 µM (PANC-1; cell proliferation, MTS; 24 h, together with: temozolomide 250 µM).
For C=CC(C)(C)c1cc2cc(-c3ccc(O)cc3O)c(=O)oc2cc1O, the IC50 was 41.3 µM (Hepa1c1c7; cell growth).
With COc1ccc2c(NC(=O)CBr)c(C(=O)c3cc(OC)c(OC)c(OC)c3)oc2c1 the IC50 was 0.72 µM (L1210; cell growth or viability; 24 h).
For Cc1ccccc1-c1c2n(c3c(=O)[nH]nc(O)c13)CCn1cccc1-2, the IC50 was 60.6 µM (PANC-1; cell growth or viability, MTT; 48 h).
CCCC[C@@H](C=O)NC(=O)[C@H](CC(C)C)NC(=O)OCc1ccccc1 gave an IC50 of 5 µM (primary chicken telencephalic neurons; Aβ38 secretion, MSD immunoassay; 24 h).
CC1(C)C2CCC(CN=C(N)CSS(=O)(=O)O)C1C2 (centres unmarked) has an IC50 of roughly 5 µM (K562, inducible U2AF1 S34F; cell viability, trypan blue; 5 d).
COc1ccc(C[C@H](N)C(=O)N[C@H]2[C@@H](O)[C@H](n3cnc4c(N(C)C)ncnc43)O[C@@H]2CO)cc1 has an IC50 of 3.49 ± 0.64 µM (NIH3T3; resazurin; 125 cells per well).
C=CCc1ccc(OCc2nn(CN3CCOCC3)c(=S)o2)c(OC)c1 has an IC50 of 1.84 µM (SK-OV-3; cell growth or viability, MTT; 72 h).
O=C1Nc2c(C(F)(F)F)cccc2C1(c1ccc(O)cc1)c1ccc(OC(F)(F)F)cc1 (centres unmarked) has an IC50 of 0.034 µM (ERα-expressing cell lines; cell death; mean over cell lines).
The IC50 of CN(C)c1ccc(-c2cc3ccccc3[nH]2)cc1 is reported as 1.5 ± 0.7 µM (HEK293 NF-κB luciferase reporter; reporter gene, item: NF-κB; 6 h, together with: TNFα).
COc1ccccc1-c1nccc(COc2ccccc2C[C@@H](Oc2ncnc3c2c(-c2ccc(OCCN4CCN(C)CC4)c(Cl)c2C)c(-c2ccc(F)cc2)n3C)C(=O)O)n1 has an IC50 of 0.032 µM (NCI-H929; cell viability, MTT; 48 h, 10% CFS).
COc1ccc(CNc2nc(NCc3ccc(OC)cc3)c3ncn(C(C)C)c3n2)cc1 has an IC50 of 4.05 µM (LAPC4; AR transcriptional activity, antagonist, PSA promoter luciferase; 24 h).
With Cc1cc(C(=O)/C(=C\c2cccc(F)c2)c2cccc(F)c2)c(C(=O)N2CCCCC2)c(=O)[nH]1 the IC50 was greater than 10 µM (human Fibroblast; cell growth or viability, MTT; 72 h).
With CC(C)=CCc1c(O)c(CC=C(C)C)c2oc3c(O)cccc3c(=O)c2c1O the IC50 was 36 ± 1.7 µM (H1L6.1c3; cell viability, MTT).
The IC50 of Cn1nnc2c(C(N)=O)ncn2c1=O is reported as 126 µM (GM12878; cell proliferation, MTS; 72 h, together with: HNL 10 µM).
CS(=O)(=O)N1CCN(Cc2cc3nc(-c4cccc5[nH]ncc45)nc(N4CCOCC4)c3s2)CC1 gave an IC50 of 0.038 ± 0.013 µM (IGROV-1; AKT Ser473 phosphorylation, inhibitor, electrochemiluminescent immunoassay; 8 h).
O=c1[nH]nc(O)c2c(-c3cccc(O)c3)c3n(c12)CCn1cccc1-3 gave an IC50 of 73.5 µM (PANC-1; cell growth or viability, MTT; 48 h).
c1ccc([C@@H]2CCC[C@@H]2NC2=NCCCCCCCCCCC2)cc1 gave an IC50 of 4.41 µM (LAPC4; AR transcriptional activity, antagonist, PSA promoter luciferase; 24 h).
For C=C(Br)C(=O)Nc1c(C(=O)c2cc(OC)c(OC)c(OC)c2)sc2c(C)cccc12, the IC50 was 0.06 µM (L1210; cell growth or viability; 24 h).
O=C(O)c1cc(O)c2c(c1)C(=O)c1cccc(O)c1C2=O has an IC50 of 140 µM (CCRF-CEM; cell growth or viability, ATP luminescence; 24 h).
For COc1ccc2cc(-c3cc4ccccc4[nH]3)ccc2c1, the IC50 was 0.6 ± 0.2 µM (HEK293 NF-κB luciferase reporter; reporter gene, item: NF-κB; 6 h, together with: TNFα).
C[C@@H]1COCCN1c1nc(-c2cnc(N)c(C(F)(F)F)c2)nc2c1C[C@@H]1COCCN21 gave an IC50 of less than 0.55 µM (A2058; In-Cell Western, item: phospho-S6 Ser235/236; 1 h).
With CCCCCc1ccc(-c2cc3ccccc3[nH]2)cc1 the IC50 was 18.1 ± 5 µM (HEK293 NF-κB luciferase reporter; reporter gene, item: NF-κB; 6 h, together with: TNFα).
With Cc1ccc(-c2c3n(c4c(=O)[nH]nc(O)c24)CCn2cccc2-3)cc1 the IC50 was 48.1 µM (PANC-1; cell growth or viability, MTT; 48 h).
Cc1cc(C(=O)/C(=C\c2ccc(Cl)cc2)c2ccc(Cl)cc2)c(C(=O)N2CCCCC2)c(=O)[nH]1 has an IC50 of greater than 10 µM (human primary dermal fibroblasts; cell proliferation, MTT; 72 h).
COc1ccc(C[C@H]2COC(=O)[C@@H]2Cc2ccc(OCCCCC(=O)NO)c(OC)c2)cc1OC gave an IC50 of greater than 5 µM (CCRF-CEM; cell growth or viability, CCK-8; 48 h).
C=C1C(=O)O[C@@H]2C[C@@]3(C)CCC[C@H](C)C3=C[C@H]12 has an IC50 of 1.01 µM (LAPC4; AR transcriptional activity, antagonist, PSA promoter luciferase; 24 h).
With COC(=O)c1ccc2c(c1)NC(=O)/C2=C(\Nc1ccc(N(C)C(=O)CN2CCN(C)CC2)cc1)c1ccccc1 the IC50 was 0.526 µM (human Fibroblast; cell growth or viability, thymidine uptake; 48 h).
With CCCCCCCCCCCCCCCCCCOP(=O)([O-])OC1CC[N+](C)(C)CC1 the IC50 was 0.0113 µM (MDA-MB-231 LINK-A PIP3-BM knock-out; spheroid growth, 3D spheroid viability).
With CCN(CC)Cc1cc2c(-c3ccccc3)cc(=O)oc2c(C)c1O the IC50 was 100 ± 65.9 µM (NIH3T3; hyaluronan secretion; 72 h).
COc1ccc(-c2cncc(N[C@@H](C)c3cccc(NC(=O)c4cncc(C)c4)c3)n2)cc1OC gave an IC50 of 0.029 µM (human Fibroblast; cell growth or viability, inhibitor).
With CCN(CC)CC1CCN(c2ncc3ncnc(Nc4ccc(F)c(Cl)c4)c3n2)CC1 the IC50 was 0.02 ± 0.004 µM (H3255 (EGFR L858R); cell viability, Alamar Blue; 120 h).
The IC50 of CC[C@]1(O)C[C@H]2CN(CCc3c([nH]c4ccccc34)[C@@](C(=O)OC)(c3cc4c(cc3OC)N(C=O)[C@H]3[C@@](O)(C(=O)OC)[C@H](OC(C)=O)[C@]5(CC)C=CCN6CC[C@]43[C@@H]65)C2)C1 is reported as 2.73 µg/mL (HCT-15/ADM2-2; cell growth, XTT; 72 h).
COC(=O)c1c(-c2cccc(Br)c2)c2n(c1C(=O)OC)CCn1cccc1-2 gave an IC50 of 65.7 µM (PANC-1; cell growth or viability, MTT; 48 h).
COc1cc(C(=O)c2sc3c(C)cccc3c2NC(=O)CI)cc(OC)c1OC gave an IC50 of 0.28 µM (L1210; cell growth or viability; 24 h).
O=C(NNC(=O)c1ccccc1O)c1cccnc1 has an IC50 of greater than 10 µM (PANC-1; cell growth or viability; 72 h).
The IC50 of CC(=O)c1cc(C(=O)N[C@@H](C)Cn2ccc(-c3ccc(C#N)c(Cl)c3)n2)[nH]n1 is reported as 0.66 µM (LAPC4; cell growth or viability, ATP luminescence).
With Cc1c(OCC(F)(F)F)ccnc1C[S@@+]([O-])c1nc2ccccc2[nH]1 the IC50 was roughly 50 µM (NICD-transfected HEK-293T; Notch-dependent transcription, inhibitor, luciferase reporter; 24 h).
C(=C\c1ccccc1)/c1ccccc1 has an IC50 of 109 µM (CCRF-CEM; cell growth or viability, ATP luminescence; 24 h).
With COc1cccc(/C=C/C(=O)/C=C/c2cccc(OC)c2OC)c1OC the IC50 was 4.6 µM (MGC-803; cell growth or viability, MTT; 72 h).
With O=C(/C=C/c1ccc(O)c(CN2CCCCC2)c1)c1ccc(F)cc1 the IC50 was 22.9 µM (WRL68; cell growth or viability, MTT; 72 h).
For NC1=NN(c2ccc(Oc3ccccc3)c(S(=O)(=O)O)c2)C(=O)C1, the IC50 was roughly 0.2 µM (AP-1-luc HEK293; AP-1 luciferase reporter, inhibitor; 24 h, together with: serum 20%).
COc1cc(C(=O)c2oc3ccccc3c2NC(C)=O)cc(OC)c1OC has an IC50 of greater than 100 µM (L1210; cell growth or viability; 24 h).
With COC(=O)c1c(-c2ccccc2O)c2n(c1C(=O)OC)CCn1cccc1-2 the IC50 was 20.3 µM (PANC-1; cell growth or viability, MTT; 48 h).
The IC50 of CCn1c[n+](CC)c2ccc(C(=O)OC)cc21 is reported as greater than 100 µM (RC-124 kidney epithelial; cell proliferation, crystal violet staining; 96 h).
`navitoclax` has an IC50 of 0.227 µM (MOLT-4; cell viability, MTS; 48 h).
O=c1cc(-c2ccc([N+](=O)[O-])cc2)[nH]c2c(-c3ccc(Cl)cc3)c(Cc3ccccc3)nn12 has an IC50 of 58 µM (primary human adipocytes; fatty acid uptake; together with: C1-BODIPY-C12 fatty acid).
COC(=O)c1c(-c2ccccc2)c2n(c1C(=O)OC)CCn1cccc1-2 has an IC50 of 70.1 µM (PANC-1; cell growth or viability, MTT; 48 h).
With CCN(CC)CCCC(C)Nc1ccnc2cc(Cl)ccc12 (centres unmarked) the IC50 was 103 µM (WRL68; cell growth or viability, MTT; 72 h).
For COc1cc(C(=O)c2sc3ccccc3c2N)cc(OC)c1OC, the IC50 was 0.66 µM (L1210; cell growth or viability).
The IC50 of O=C1[C@H](Cc2ccc(O)cc2)N2C(=O)CCN(C(=O)NCc3ccccc3)[C@H]2CN1Cc1cccc2ccccc12 is reported as 1.27 µM (Hepa1-6; Wnt/β-catenin signalling, inhibitor, LEF/TCF luciferase reporter; 24 h).
The IC50 of COc1cc(C(=O)c2sc3c(C)cccc3c2NC(=O)CO[N+](=O)[O-])cc(OC)c1OC is reported as 0.055 µM (L1210; cell growth or viability; 24 h).
For COC(=O)c1c(-c2ccc(O)c(OC)c2)c2n(c1C(=O)OC)CCn1cccc1-2, the IC50 was 44 µM (PANC-1; cell growth or viability, MTT; 48 h).
With CC(=O)O[C@H]1C(=O)[C@@]2(C)[C@H]([C@H](OC(=O)c3ccccc3)[C@]3(O)C[C@H](OC(=O)[C@H](O)[C@@H](NC(=O)c4ccccc4)c4ccccc4)C(C)=C1C3(C)C)[C@]1(OC(C)=O)CO[C@@H]1C[C@@H]2O the IC50 was 4.6 µM (HCT-8; cell growth or viability, CCK-8; 72 h).
O=C(NNC(=O)c1c(O)ccc2ccccc12)c1cccnc1 gave an IC50 of greater than 10 µM (PANC-1; cell growth or viability; 72 h).
COc1ccccc1-c1nccc(COc2ccccc2C[C@@H](Nc2ccnc3sc(-c4ccc(F)cc4)c(-c4ccc(OCCN5CCN(C)CC5)c(Cl)c4C)c23)C(=O)O)n1 has an IC50 of 0.011 µM (NCI-H929; cell viability, MTT; 48 h, 10% CFS).
The IC50 of Cn1cc(Nc2nccc(-c3ccc4c(c3)CN(C3COC3)CC[C@H]4NC(=O)c3cn(C(C)(C)C)nn3)n2)cn1 is reported as 0.0056 ± 0.0015 µM (human primary monocytes; TNFα production; together with: plate-bound human IgG).
O=C1C(=Cc2ccccc2)CN(C(=O)c2cccc(C(=O)N3CC(=Cc4ccccc4)C(=O)C(=Cc4ccccc4)C3)c2)CC1=Cc1ccccc1 has an IC50 of 150 µM (L1210; cell growth or viability).

For quick reference, copied from above:
For C=C(Br)C(=O)Nc1c(C(=O)c2cc(OC)c(OC)c(OC)c2)sc2c(C)cccc12, the IC50 was 0.06 µM (L1210; cell growth or viability; 24 h).
O=C(O)c1cc(O)c2c(c1)C(=O)c1cccc(O)c1C2=O has an IC50 of 140 µM (CCRF-CEM; cell growth or viability, ATP luminescence; 24 h).
For COc1ccc2cc(-c3cc4ccccc4[nH]3)ccc2c1, the IC50 was 0.6 ± 0.2 µM (HEK293 NF-κB luciferase reporter; reporter gene, item: NF-κB; 6 h, together with: TNFα).
C[C@@H]1COCCN1c1nc(-c2cnc(N)c(C(F)(F)F)c2)nc2c1C[C@@H]1COCCN21 gave an IC50 of less than 0.55 µM (A2058; In-Cell Western, item: phospho-S6 Ser235/236; 1 h).
